# Measurements collected from several papers.
# Compare with care: the assays were run in different laboratories. ± gives the spread as reported.
# Chain of UniProt P21397 (whole entry, looked up): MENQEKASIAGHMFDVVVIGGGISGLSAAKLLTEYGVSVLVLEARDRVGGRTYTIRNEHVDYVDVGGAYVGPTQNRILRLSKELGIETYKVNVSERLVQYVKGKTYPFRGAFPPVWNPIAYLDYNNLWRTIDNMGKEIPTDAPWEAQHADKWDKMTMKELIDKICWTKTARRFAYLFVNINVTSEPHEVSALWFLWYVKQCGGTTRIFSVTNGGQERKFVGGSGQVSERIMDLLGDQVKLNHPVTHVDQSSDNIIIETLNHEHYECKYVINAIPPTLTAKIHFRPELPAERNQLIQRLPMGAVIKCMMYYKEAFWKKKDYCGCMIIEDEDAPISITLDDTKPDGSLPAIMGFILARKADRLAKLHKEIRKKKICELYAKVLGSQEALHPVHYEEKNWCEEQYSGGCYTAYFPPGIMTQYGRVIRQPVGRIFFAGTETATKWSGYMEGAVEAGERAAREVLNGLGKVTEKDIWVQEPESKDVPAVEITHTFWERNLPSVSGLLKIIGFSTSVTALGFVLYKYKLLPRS
# Chain of UniProt Q6PJP8 (whole entry, looked up): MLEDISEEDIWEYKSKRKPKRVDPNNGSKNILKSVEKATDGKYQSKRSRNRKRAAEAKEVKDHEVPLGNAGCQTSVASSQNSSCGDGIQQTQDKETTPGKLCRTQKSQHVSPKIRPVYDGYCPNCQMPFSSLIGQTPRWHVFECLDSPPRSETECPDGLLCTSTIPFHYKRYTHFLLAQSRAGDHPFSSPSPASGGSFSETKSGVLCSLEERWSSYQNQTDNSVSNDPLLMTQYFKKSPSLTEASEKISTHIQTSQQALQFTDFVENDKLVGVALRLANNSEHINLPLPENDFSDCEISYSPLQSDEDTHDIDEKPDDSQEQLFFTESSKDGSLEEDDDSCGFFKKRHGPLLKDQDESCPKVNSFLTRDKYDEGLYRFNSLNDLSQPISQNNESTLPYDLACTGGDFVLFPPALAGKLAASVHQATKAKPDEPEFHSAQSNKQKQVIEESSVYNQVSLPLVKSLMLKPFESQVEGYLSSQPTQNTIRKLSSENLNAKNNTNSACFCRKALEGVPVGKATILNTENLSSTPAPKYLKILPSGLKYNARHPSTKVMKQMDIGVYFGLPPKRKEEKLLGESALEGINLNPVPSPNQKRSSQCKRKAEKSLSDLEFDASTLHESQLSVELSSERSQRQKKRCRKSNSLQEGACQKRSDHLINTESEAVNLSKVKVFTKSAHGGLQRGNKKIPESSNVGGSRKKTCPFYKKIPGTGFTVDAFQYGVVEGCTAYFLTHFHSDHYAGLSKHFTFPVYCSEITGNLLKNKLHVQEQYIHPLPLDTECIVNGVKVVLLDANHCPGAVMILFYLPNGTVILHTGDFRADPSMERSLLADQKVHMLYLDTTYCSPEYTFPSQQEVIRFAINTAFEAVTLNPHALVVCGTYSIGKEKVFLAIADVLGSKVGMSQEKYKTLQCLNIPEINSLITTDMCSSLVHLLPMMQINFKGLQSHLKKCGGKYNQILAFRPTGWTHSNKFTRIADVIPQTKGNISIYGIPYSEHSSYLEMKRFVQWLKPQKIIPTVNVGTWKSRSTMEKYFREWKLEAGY
# Chain of UniProt P15090 (whole entry, looked up): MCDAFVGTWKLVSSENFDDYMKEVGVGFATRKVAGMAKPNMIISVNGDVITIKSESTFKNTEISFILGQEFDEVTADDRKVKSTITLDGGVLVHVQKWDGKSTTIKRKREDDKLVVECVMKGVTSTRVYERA
# Chain of UniProt Q704Y3 (whole entry, unmodified, looked up): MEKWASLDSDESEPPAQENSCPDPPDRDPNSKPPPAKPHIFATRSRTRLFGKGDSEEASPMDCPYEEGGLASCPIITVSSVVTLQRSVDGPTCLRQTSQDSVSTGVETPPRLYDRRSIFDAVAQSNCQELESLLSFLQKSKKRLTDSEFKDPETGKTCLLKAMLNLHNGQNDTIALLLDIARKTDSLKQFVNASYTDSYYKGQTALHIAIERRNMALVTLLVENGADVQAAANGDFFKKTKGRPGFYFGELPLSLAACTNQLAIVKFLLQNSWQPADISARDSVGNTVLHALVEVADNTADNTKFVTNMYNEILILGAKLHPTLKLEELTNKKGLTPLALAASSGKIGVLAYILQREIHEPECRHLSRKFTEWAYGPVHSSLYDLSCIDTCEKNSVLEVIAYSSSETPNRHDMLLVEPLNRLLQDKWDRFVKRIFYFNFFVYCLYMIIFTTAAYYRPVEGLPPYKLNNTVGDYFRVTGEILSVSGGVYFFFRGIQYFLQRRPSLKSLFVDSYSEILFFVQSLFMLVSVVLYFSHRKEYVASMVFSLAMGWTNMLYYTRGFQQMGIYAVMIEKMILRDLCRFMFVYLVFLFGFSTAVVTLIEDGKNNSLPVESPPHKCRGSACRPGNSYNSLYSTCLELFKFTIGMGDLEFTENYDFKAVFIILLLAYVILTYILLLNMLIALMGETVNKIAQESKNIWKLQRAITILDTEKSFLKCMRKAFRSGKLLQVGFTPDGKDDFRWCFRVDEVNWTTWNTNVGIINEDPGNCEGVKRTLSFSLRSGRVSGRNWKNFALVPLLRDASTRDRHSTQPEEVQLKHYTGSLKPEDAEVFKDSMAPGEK
# Chain of UniProt A2RJT9 (whole entry, unmodified, looked up): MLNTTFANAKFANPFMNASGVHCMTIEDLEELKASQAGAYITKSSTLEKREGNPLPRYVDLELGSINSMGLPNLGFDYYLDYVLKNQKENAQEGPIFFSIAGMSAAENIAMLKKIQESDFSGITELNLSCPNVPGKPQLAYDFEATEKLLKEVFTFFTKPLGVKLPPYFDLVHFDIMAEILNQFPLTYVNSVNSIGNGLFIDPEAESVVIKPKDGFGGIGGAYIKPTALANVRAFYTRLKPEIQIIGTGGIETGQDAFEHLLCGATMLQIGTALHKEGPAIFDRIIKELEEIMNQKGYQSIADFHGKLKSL
# Chain of UniProt P62136 (whole entry, unmodified, looked up): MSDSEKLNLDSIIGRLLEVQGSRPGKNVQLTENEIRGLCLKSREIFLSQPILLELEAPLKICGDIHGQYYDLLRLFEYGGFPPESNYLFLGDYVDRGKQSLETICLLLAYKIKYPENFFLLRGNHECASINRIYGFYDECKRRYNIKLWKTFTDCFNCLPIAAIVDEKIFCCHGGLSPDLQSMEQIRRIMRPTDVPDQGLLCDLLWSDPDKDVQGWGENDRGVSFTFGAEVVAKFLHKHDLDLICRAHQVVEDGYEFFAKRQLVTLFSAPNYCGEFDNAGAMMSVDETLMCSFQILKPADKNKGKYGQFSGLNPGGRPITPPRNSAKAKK
# Chain of UniProt Q9H093 (whole entry, looked up): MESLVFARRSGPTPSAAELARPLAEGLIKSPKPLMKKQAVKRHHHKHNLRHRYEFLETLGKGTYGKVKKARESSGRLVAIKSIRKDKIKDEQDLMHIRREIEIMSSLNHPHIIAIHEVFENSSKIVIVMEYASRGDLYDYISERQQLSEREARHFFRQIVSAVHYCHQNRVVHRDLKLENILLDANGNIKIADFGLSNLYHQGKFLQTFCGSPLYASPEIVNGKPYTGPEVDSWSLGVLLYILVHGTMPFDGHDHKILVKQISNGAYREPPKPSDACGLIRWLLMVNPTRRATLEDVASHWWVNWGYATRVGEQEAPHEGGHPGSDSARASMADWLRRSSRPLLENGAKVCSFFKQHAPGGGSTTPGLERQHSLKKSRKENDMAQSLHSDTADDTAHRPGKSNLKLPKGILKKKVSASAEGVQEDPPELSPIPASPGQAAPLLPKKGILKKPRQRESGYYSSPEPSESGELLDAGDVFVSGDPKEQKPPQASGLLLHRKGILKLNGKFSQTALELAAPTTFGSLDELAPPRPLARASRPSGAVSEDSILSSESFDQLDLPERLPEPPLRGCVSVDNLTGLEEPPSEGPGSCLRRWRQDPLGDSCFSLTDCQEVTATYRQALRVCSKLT
# Chain of UniProt O95838 (whole entry, looked up): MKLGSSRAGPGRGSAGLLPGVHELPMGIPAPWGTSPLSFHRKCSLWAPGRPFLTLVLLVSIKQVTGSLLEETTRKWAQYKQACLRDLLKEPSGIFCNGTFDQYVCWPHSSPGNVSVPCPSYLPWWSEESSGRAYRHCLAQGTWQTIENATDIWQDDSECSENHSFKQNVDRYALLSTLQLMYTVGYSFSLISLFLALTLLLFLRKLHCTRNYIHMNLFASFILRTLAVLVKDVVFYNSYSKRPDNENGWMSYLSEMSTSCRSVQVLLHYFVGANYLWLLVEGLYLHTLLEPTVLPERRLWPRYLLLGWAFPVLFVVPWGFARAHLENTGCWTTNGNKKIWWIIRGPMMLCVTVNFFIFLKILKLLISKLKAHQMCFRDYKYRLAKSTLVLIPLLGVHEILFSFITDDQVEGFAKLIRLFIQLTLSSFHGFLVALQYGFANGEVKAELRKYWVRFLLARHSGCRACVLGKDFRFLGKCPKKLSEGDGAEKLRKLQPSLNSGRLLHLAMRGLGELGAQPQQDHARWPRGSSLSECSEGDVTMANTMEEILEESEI
Compound,target,test,test system,conditions,how to read,measurement,value
CC(C)(C)C(=O)C1C(=O)c2ccccc2C1=O,"Nuclear receptor subfamily 1 group I member 3 (Homo sapiens, UniProt Q14994)",,,concentration not given,,activity,inactive
C[C@H]1CN(c2n[nH]c3nc(N[C@H]4CC[C@H](NS(=O)(=O)CCC(F)(F)F)CC4)ncc23)CCO1,"Tight junction protein 1 (TJP1, Homo sapiens, UniProt Q07157)","Kinobeads competition, measured: TJP1",,"0.032 µM, unit not given",relative to: vehicle,remaining binding,1.09
Nc1nc2c(ncn2[C@@H]2O[C@H](COP(=O)(O)OP(=O)(O)O)[C@@H](O)[C@H]2O)c(=O)[nH]1,"matB (Rhodopseudomonas palustris, UniProt Q6ND88, C106A/K488A/Q457C/R286C)","binding, intrinsic fluorescence",,"250 µM, 1 µM matB, 10 mM MgCl2",,fluorescence ratio F+/F-,0.97
CCCCC/C=C\C/C=C\C/C=C\C/C=C\CCCC(=O)NCCO,"Trpv1 (Mus musculus, UniProt Q704Y3, S513T)","ion current, agonist, whole-cell patch clamp",,S513T,relative to: 3 mM 2-APB,maximal open probability,0.97 ± 0.16
O=C1CC(C(=O)O)NC(=O)N1 (stereo not shown),"Dihydroorotate dehydrogenase A (fumarate) (pyrDA, Lactococcus lactis subsp. cremoris, UniProt A2RJT9, L71F)","flavin reduction, stopped-flow",Lactococcus lactis,25 °C,,kred,0.07 ± 0.001 s⁻¹
CC(CCn1ccc(-c2ccc(-c3cn(CC4CCCCC4)nn3)cc2)cc1=O)(C(=O)NO)S(C)(=O)=O (stereo not shown),"UDP-3-O-acyl-N-acetylglucosamine deacetylase (Pseudomonas aeruginosa, UniProt P47205)",fluorescence,,37 °C,,residence time,100 ± 18.5 min
Nc1nc2c(ncn2[C@@H]2O[C@@H]3COP(=O)(O)O[C@H]4[C@@H](O)[C@H](n5cnc6c(=O)[nH]c(N)nc65)O[C@@H]4COP(=O)(O)O[C@H]3[C@H]2O)c(=O)[nH]1,"Cell cycle histidine kinase CckA, G318A; cytoplasmic region (Caulobacter vibrioides, UniProt Q9X688, G318A)","binding, ITC",,with: ADP 5 mM,,association constant,29200 ± 4410 M⁻¹
CN(C(=O)n1cnc(-c2ccc[n+]([O-])c2)c1)C1CCCCC1,"ADRB3 (Homo sapiens, UniProt P13945)",radioligand binding,,10 µM,,inhibition,4%
Cn1cc(C2=C(c3ccc(Cl)cc3Cl)C(=O)NC2=O)c2ccccc21,"blaNDM-1 (Klebsiella pneumoniae, UniProt C7C422)",inhibitor,,,,Hill coefficient,1.7
Oc1ccc(Cl)cc1Cl,"FABP4 (Homo sapiens, UniProt P15090)","binding, affinity selection mass spectrometry",,"100 nM, pooled screen",relative to: other proteins,fold change,57
CC1(C)[C@H](C(=O)O[C@H](C#N)c2cccc(Oc3ccccc3)c2)[C@@H]1C=C(Br)Br,"uncharacterized protein (Anopheles coluzzii, UniProt A0A6E8VQK1)","enzyme activity, inhibitor",Sf9 cell homogenate,"45.45 µM, 0.1667 h, with: α-naphthyl acetate substrate",relative to: no inhibitor,remaining activity,98.7%
[2H]c1c([2H])c([C@]2([2H])CCCN2C(=O)C(C)(C)Oc2ccc3cn[nH]c3c2)c([2H])c([2H])c1C([2H])([2H])[2H],"NUAK2 (Homo sapiens, UniProt Q9H093)",KINOMEscan,,1 µM,relative to: DMSO control,remaining binding,100%
CCn1c(-c2nc3cc(C(=O)N4CCC[C@@H](N)C4)cc(OC)c3n2C)cc2cccnc21,"PADI3 (Homo sapiens, UniProt Q9ULW8)",,,,relative to: Ki' PADI3 over Ki' PAD4,selectivity ratio,61
COc1cc2nccc(Oc3ccc(NC(=O)c4cc5c(n(-c6ccccc6)c4=O)CCCC5=O)nc3)c2cc1OC,"SRC (Homo sapiens, UniProt P12931)","cell viability, CellTiter-Glo",Ba/F3 expressing recombinant kinase,,relative to: SRC IC50 over AXL IC50,selectivity ratio,> 100
CC[C@@H](C)[C@@H](NC(=O)[C@@H](Cc1ccc(O)cc1)NC(=O)[C@H]1CCCN1C(=O)[C@@H](CCCNC(=N)N)NC(=O)[C@H](N)Cc1c[nH]cn1)C(=O)N[C@H](C)C(=O)N[C@H](Cc1c[nH]cn1)C(=O)N[C@H](CCCNC(=N)N)C(=O)N[C@H](CCCCNC(=O)c1cccc(S(=O)(=O)F)c1)C(=O)N[C@H](Cc1ccc(O)cc1)C(=O)N[C@H](CO)C(=O)N[C@H](Cc1ccccc1)C(N)=O,"Transferrin receptor protein 1 (Tfrc, Mus musculus, UniProt Q62351)",flow cytometry,DC2.4,"48 h, pH 6, replicate 3, unit not given",relative to: 0 h,surface TFRC expression,0.741
CC[C@H](C)[C@H](N)C(=O)N1CCC[C@H]1C(=O)N1CCC[C@H]1C(=O)NCC(=O)N[C@H](C(=O)N1CCC[C@H]1C(=O)N[C@@H](Cc1ccc(O)cc1)C(=O)O)C(C)C,"MAOA (Homo sapiens, UniProt P21397)","inhibitor, fluorometric",,,relative to: IC50 MAO-B over IC50 MAOA,selectivity ratio,11
COc1cc(Nc2ncc(F)c(Nc3ccc4c(n3)NC(=O)C(C)(C)O4)n2)cc(OC)c1OC,"CDK19 (Homo sapiens, UniProt Q9BWU1)","kinase binding, KINOMEscan",,10 µM,,inhibition,0%
CN1CCN(c2cc(-c3ccncc3)c(-c3ccc4ccccc4c3)nn2)CC1,"GLP2R (Homo sapiens, UniProt O95838)",,,12.5 µM,,activation,25.7%
N.N.N.N.N.N.N.N.N.N.N.N.N.N.[Cl-].[Cl-].[Cl-].[Cl-].[Cl-].[Cl-].[O-2].[O-2].[Ru+3].[Ru+3].[Ru+4],"DCLRE1A (Homo sapiens, UniProt Q6PJP8)","exonuclease activity, inhibitor, fluorescence HTS",,"10 µM, 80 min, with: 8 nM 5P-FQ substrate",relative to: high and low controls,remaining activity,41.6%
O=C(Nc1cnccc1Cl)N1CCN(Cc2ccc3c(c2)OC(F)(F)O3)CC1,"ESR2 (Homo sapiens, UniProt Q92731)",radioligand binding,,"50 µM, with: [3H]estradiol",,inhibition of binding,2%
CO[P@@](=O)(Oc1ccccc1)OC1CCCCC1,"had (Sphingobium sp. TCM1, UniProt A0A077JBW9)",,,,,Km,170 ± 20 µM
C#Cc1n[nH]c2c(-c3cn([C@@H](C)c4ccccn4)c(=O)[nH]c3=O)cc(F)cc12,"Phosphatidylinositol 4,5-bisphosphate 3-kinase catalytic subunit delta isoform, with p85 alpha (PIK3CD, Homo sapiens, UniProt O00329)","kinase activity, inhibitor",,100 nM,,inhibition,4.9%
Cc1ccc(OP(=O)(Oc2ccc(C)cc2)Oc2ccc(C)cc2)cc1,"Acylamino-acid-releasing enzyme (Apeh, Mus musculus, UniProt Q8R146)",,mouse,oral,,ED50,> 240 mg/kg
OB(O)CSc1nc2ccccc2n1Cc1ccc(C(F)(F)F)cc1C(F)(F)F,"Regulatory protein BlaR1, sensor domain (blaR1, Staphylococcus aureus, UniProt P18357)",,,pH 7.4,,kinact/KI,900 ± 100000 M⁻¹ s⁻¹
CC[C@H](C)[C@H](NC(=O)CNC(=O)[C@@H](N)CCCCN)C(=O)N[C@@H](CC(C)C)C(=O)N[C@@H](CCCCN)C(=O)N[C@@H](CC(N)=O)C(=O)N[C@@H](CCCNC(=N)N)C(=O)N[C@@H](C)C(=O)N[C@@H](CCCNC(=N)N)C(=O)N[C@@H](CCCNC(=N)N)C(=O)N[C@@H](CCC(=O)O)C(=O)N[C@@H](CCCNC(=N)N)C(=O)N1CCC[C@H]1C(=O)NCC(=O)N[C@@H](CCCCN)C(=O)N[C@@H](CCCNC(=N)N)C(=O)N[C@@H](CCCCN)C(=O)N[C@H](C(=O)N[C@H](C(=O)N[C@H](C(=O)N[C@@H](Cc1c[nH]c2ccccc12)C(=O)N1CCC[C@H]1C(=O)N[C@@H](CCC(=O)O)C(=O)N[C@@H](CCC(=O)O)C(=O)NCC(=O)N[C@@H](CCCCN)C(=O)N[C@@H](CC(C)C)C(=O)N[C@@H](CCCNC(=N)N)C(=O)N[C@@H](CCC(=O)O)C(=O)N[C@@H](Cc1ccc(O)cc1)C(=O)N[C@@H](Cc1ccccc1)C(=O)N[C@@H](Cc1ccc(O)cc1)C(=O)N[C@@H](Cc1ccccc1)C(=O)N[C@@H](CCC(=O)O)C(=O)N[C@@H](CC(C)C)C(=O)N[C@@H](CC(=O)O)C(=O)N[C@@H](CCC(=O)O)C(=O)N[C@H](C(=O)N[C@@H](CCC(=O)O)C(=O)N[C@@H](CCCNC(=N)N)C(=O)N[C@H](C(=O)N[C@@H](CC(N)=O)C(=O)N[C@H](C(=O)O)C(C)C)C(C)C)[C@@H](C)O)[C@@H](C)O)C(C)C)[C@@H](C)O,"PPP1CA (Homo sapiens, UniProt P62136)","binding, isothermal titration calorimetry",,"concentration not given, 25 °C, PP1α residues 7-330",,entropy change ΔS,-68 ± 4.6 cal/mol/K
NC[C@H](NC(=O)c1ccc(C#Cc2ccccc2)cc1)C(=O)NO,"UDP-3-O-acyl-N-acetylglucosamine deacetylase (Pseudomonas aeruginosa, UniProt P47205, C40S)",ITC,,"concentration not given, 298 K",,ΔS of binding,0.128 kJ/(mol·K)
COc1ccc(N2C(=O)N(c3c(C)cccc3Cl)Cc3cnc(Nc4ccc(C5CCN(C)CC5)cc4OC)nc32)nc1,"FGFR4 (Homo sapiens, UniProt P22455)",kinase activity,,0.5 µM,,inhibition,30%
Cc1nn(C)cc1-c1nc2c(N3CCN(Cc4ccc(Cl)cc4)CC3)c(Cl)cnc2[nH]1,"NEK3 (Homo sapiens, UniProt P51956)",KINOMEscan,,1 µM,relative to: DMSO control,remaining binding,100%

# For quick reference, copied from above:
Compound,target,test,test system,conditions,how to read,measurement,value
CCn1c(-c2nc3cc(C(=O)N4CCC[C@@H](N)C4)cc(OC)c3n2C)cc2cccnc21,"PADI3 (Homo sapiens, UniProt Q9ULW8)",,,,relative to: Ki' PADI3 over Ki' PAD4,selectivity ratio,61
COc1cc2nccc(Oc3ccc(NC(=O)c4cc5c(n(-c6ccccc6)c4=O)CCCC5=O)nc3)c2cc1OC,"SRC (Homo sapiens, UniProt P12931)","cell viability, CellTiter-Glo",Ba/F3 expressing recombinant kinase,,relative to: SRC IC50 over AXL IC50,selectivity ratio,> 100
CC[C@@H](C)[C@@H](NC(=O)[C@@H](Cc1ccc(O)cc1)NC(=O)[C@H]1CCCN1C(=O)[C@@H](CCCNC(=N)N)NC(=O)[C@H](N)Cc1c[nH]cn1)C(=O)N[C@H](C)C(=O)N[C@H](Cc1c[nH]cn1)C(=O)N[C@H](CCCNC(=N)N)C(=O)N[C@H](CCCCNC(=O)c1cccc(S(=O)(=O)F)c1)C(=O)N[C@H](Cc1ccc(O)cc1)C(=O)N[C@H](CO)C(=O)N[C@H](Cc1ccccc1)C(N)=O,"Transferrin receptor protein 1 (Tfrc, Mus musculus, UniProt Q62351)",flow cytometry,DC2.4,"48 h, pH 6, replicate 3, unit not given",relative to: 0 h,surface TFRC expression,0.741
CC[C@H](C)[C@H](N)C(=O)N1CCC[C@H]1C(=O)N1CCC[C@H]1C(=O)NCC(=O)N[C@H](C(=O)N1CCC[C@H]1C(=O)N[C@@H](Cc1ccc(O)cc1)C(=O)O)C(C)C,"MAOA (Homo sapiens, UniProt P21397)","inhibitor, fluorometric",,,relative to: IC50 MAO-B over IC50 MAOA,selectivity ratio,11
